Assay results pooled from the literature.
Lines come from different studies, so protocols differ. ± marks the error that the study gave.
ache: Acetylcholinesterase (ache, Electrophorus electricus, UniProt O42275)
Chain of UniProt O42275 (whole entry, looked up): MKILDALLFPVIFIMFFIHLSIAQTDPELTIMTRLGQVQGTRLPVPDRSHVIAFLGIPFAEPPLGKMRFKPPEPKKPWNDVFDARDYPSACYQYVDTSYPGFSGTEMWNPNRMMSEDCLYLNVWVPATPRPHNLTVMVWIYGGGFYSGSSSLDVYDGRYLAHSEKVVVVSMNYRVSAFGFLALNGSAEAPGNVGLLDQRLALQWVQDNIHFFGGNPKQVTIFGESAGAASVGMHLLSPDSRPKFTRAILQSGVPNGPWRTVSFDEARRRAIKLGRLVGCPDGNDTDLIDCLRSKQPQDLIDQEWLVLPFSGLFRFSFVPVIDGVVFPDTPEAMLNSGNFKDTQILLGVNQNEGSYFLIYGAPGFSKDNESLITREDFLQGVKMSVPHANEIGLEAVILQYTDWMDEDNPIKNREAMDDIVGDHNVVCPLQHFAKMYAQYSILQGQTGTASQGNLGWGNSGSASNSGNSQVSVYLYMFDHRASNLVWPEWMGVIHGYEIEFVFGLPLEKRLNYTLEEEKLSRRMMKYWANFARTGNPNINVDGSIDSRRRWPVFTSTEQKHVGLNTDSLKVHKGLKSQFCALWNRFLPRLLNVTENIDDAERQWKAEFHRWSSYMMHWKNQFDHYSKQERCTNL
OPRK1: Kappa-type opioid receptor (OPRK1, Homo sapiens, UniProt P41145)
Chain of UniProt P41145 (whole entry, looked up): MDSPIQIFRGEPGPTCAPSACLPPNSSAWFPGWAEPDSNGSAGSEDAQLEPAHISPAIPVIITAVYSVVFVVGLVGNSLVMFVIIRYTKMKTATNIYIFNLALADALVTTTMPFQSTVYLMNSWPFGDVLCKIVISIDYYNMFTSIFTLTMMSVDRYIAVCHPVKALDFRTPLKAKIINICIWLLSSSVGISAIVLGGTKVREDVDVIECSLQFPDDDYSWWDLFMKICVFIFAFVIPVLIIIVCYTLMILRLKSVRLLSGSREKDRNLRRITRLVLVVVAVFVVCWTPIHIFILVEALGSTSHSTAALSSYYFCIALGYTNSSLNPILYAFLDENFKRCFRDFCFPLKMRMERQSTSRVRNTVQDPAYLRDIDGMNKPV
SIGMAR1: Sigma non-opioid intracellular receptor 1 (SIGMAR1, Homo sapiens, UniProt Q99720)
Chain of UniProt Q99720 (whole entry, looked up): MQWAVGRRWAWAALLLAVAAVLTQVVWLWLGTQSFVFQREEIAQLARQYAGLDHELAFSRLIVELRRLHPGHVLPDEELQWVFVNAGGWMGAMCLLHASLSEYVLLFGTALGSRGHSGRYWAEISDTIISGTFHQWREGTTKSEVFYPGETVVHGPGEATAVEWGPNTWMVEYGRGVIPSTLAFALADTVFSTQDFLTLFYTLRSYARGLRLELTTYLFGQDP
CARM1: Histone-arginine methyltransferase CARM1 (CARM1, Homo sapiens, UniProt Q86X55)
Chain of UniProt Q86X55 (whole entry, looked up): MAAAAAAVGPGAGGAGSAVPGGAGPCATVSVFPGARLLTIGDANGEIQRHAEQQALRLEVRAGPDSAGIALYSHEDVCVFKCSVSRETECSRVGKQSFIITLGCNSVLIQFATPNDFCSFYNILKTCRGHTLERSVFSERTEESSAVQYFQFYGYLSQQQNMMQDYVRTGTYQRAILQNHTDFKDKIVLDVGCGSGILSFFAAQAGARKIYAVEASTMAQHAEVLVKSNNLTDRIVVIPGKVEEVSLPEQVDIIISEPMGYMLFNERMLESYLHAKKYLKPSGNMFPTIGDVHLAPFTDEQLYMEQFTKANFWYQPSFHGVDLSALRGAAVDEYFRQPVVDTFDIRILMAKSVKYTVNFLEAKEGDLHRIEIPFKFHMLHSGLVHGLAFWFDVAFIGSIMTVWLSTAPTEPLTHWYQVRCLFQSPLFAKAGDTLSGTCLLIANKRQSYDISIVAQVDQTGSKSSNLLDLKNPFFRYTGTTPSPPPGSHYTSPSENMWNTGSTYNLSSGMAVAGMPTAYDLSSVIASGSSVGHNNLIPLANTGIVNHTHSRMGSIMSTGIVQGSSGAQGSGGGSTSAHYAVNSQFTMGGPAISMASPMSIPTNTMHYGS
DRD5: D(1B) dopamine receptor (DRD5, Homo sapiens, UniProt P21918)
Chain of UniProt P21918 (whole entry, looked up): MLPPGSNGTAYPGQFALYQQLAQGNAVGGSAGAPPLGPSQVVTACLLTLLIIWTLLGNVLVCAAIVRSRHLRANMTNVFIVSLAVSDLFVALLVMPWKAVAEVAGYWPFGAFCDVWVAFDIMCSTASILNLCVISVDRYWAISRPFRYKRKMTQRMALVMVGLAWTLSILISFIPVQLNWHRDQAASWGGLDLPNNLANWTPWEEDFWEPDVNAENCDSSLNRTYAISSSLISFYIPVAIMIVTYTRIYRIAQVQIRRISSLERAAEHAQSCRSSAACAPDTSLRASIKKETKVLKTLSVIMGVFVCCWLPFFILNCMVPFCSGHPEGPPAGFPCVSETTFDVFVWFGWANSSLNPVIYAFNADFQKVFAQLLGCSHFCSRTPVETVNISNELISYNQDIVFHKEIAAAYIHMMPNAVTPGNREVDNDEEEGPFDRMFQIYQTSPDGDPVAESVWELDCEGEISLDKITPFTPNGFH
Chymotrypsinogen A: Chymotrypsinogen A (Bos taurus, UniProt P00766)
SLC6A3: Sodium-dependent dopamine transporter (SLC6A3, Homo sapiens, UniProt Q01959)
Chain of UniProt Q01959 (whole entry, looked up): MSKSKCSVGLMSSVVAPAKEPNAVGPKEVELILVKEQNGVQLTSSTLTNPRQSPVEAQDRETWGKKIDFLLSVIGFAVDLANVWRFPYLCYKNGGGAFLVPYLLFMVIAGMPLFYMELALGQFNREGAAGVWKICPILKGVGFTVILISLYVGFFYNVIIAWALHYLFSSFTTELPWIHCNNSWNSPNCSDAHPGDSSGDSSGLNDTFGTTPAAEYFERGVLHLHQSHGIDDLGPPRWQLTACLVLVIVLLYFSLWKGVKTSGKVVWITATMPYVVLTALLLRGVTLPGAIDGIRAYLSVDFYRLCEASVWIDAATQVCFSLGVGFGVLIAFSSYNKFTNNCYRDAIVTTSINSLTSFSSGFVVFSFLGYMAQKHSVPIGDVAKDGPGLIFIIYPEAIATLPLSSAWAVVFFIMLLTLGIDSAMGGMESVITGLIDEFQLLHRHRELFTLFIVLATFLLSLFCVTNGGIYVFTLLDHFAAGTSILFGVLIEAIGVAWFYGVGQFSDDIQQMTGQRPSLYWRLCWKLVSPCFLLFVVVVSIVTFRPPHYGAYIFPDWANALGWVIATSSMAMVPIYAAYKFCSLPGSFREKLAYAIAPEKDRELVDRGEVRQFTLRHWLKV
Chain of UniProt Q6DWJ6 (whole entry, looked up): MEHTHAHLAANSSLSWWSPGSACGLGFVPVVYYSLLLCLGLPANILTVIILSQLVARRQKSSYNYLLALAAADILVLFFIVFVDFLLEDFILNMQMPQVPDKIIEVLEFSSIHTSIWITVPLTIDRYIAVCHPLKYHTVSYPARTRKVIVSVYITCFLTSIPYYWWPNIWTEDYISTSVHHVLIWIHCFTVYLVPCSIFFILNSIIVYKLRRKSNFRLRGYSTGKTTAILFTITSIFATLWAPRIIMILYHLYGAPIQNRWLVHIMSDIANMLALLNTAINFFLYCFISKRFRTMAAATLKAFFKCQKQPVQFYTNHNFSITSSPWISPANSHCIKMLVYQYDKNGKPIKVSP
Chain of UniProt P34972 (whole entry, looked up): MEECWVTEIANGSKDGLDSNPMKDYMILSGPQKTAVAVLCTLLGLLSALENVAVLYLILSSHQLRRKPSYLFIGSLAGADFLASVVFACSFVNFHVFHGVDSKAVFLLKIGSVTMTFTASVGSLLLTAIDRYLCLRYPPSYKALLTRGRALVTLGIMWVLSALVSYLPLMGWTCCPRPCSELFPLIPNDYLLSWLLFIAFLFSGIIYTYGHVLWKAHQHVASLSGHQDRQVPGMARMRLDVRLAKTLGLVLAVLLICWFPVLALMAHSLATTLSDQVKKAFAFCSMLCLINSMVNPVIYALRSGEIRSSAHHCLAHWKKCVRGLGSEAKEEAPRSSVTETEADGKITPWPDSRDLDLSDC
Chain of UniProt P21728 (whole entry, looked up): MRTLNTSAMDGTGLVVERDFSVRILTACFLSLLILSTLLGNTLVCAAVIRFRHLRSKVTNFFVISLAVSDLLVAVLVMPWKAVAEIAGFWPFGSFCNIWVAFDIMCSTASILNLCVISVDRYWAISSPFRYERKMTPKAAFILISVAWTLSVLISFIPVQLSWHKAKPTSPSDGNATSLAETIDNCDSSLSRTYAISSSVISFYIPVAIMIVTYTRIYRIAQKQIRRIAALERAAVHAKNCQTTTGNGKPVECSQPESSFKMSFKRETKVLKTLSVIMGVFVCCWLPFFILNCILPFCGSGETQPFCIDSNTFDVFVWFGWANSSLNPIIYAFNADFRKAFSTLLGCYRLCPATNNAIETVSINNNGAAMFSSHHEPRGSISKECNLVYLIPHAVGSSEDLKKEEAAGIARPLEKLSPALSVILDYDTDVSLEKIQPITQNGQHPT
Chain of UniProt P23811 (whole entry, looked up): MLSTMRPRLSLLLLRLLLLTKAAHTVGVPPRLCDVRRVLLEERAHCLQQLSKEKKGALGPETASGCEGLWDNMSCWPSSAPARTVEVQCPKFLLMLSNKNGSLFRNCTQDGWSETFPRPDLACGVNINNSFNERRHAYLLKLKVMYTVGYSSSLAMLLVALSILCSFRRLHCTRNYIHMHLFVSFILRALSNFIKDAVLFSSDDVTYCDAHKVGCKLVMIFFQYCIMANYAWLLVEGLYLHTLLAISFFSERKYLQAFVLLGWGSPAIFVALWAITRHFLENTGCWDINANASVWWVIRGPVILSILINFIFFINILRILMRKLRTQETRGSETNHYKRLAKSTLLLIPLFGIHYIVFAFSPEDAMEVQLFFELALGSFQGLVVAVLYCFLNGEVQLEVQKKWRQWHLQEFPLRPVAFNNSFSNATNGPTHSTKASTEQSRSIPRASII
Chain of UniProt P41143 (whole entry, unmodified, looked up): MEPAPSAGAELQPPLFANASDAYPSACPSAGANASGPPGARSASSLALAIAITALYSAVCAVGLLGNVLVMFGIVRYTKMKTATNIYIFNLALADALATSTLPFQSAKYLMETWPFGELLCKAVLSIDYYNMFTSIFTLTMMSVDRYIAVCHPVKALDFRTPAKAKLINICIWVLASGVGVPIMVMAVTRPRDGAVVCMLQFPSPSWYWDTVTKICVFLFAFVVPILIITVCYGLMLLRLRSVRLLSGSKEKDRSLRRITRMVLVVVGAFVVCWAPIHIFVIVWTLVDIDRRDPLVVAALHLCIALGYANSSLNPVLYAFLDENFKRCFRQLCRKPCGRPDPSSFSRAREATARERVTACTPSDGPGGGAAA

For `O=S(=O)(N/N=C/c1ccc(OS(=O)(=O)c2ccc(Br)cc2)cc1)c1ccc(Cl)cc1`, the Ki was 14.8 nM (ache; enzyme activity, inhibitor, Ellman).
For `O=C(Cc1ccc(Cl)c(Cl)c1)N1CCN(Cc2ccccc2)[C@@H]2CCC[C@H](N3CCCC3)[C@H]21` (relative stereo), the Ki was 260 nM (OPRK1; cell-free assay).
The Ki of `C[C@]12COc3ccc(OCc4ccc(Cl)cc4)cc3[C@H]1CCN2` is reported as 1.7 nM (SIGMAR1; cell-free assay, radioligand).
With `O=S(=O)(N/N=C/c1ccc(OS(=O)(=O)c2ccccc2)cc1)c1cc(Cl)ccc1Cl` the Ki was 10.1 nM (ache; enzyme activity, inhibitor, Ellman).
The Ki of `CC(=O)NCCCC[C@H](NC(=O)[C@H](CCCNC(=N)NCCC[C@H]1O[C@@H](n2cnc3c(N)ncnc32)[C@H](O)[C@@H]1O)NC(=O)[C@@H]1CCCN1C(=O)[C@H](C)NC(=O)[C@H](CCCCN)NC(C)=O)C(=O)N[C@@H](CCC(N)=O)C(=O)N[C@@H](CC(C)C)C(=O)N[C@@H](C)C(N)=O` (relative stereo) is reported as 66 nM (CARM1; enzyme activity, inhibitor).
`O=C1c2ccccc2CCCN1CCCCN1CCN(c2cccc(Cl)c2Cl)CC1` gave a Ki of 3580 nM (DRD5; ligand displacement, radioligand).
`CCCCCn1ccc(C(=O)NC(C)(C)c2ccc(NC(C)=O)cc2)n1` gave a Ki of 1750 nM (CNR2 (Homo sapiens, UniProt P34972); ligand displacement, radioligand).
`C[C@]12COc3ccc(OCc4ccccc4Cl)cc3[C@H]1CCN2` has a Ki of 1.4 nM (SIGMAR1; cell-free assay, radioligand).
The Ki of `CC(C)(C)c1ccc(/N=N/c2cccc([B-](F)(F)F)c2)cc1` is reported as 341000 nM (Chymotrypsinogen A; enzyme activity, competitive inhibitor; buffer with 2 vol% DMSO; pH 7.81, 25 °C, thermally adapted trans state, with: Suc-AAPF-AMC).
The Ki of `OC1Cc2ccccc2CC1N1CCC2(C=Cc3cc(Br)ccc32)CC1` (racemic) is reported as 1.7 ± 0.3 nM (SIGMAR1; binding, radioligand displacement; HEK293 expressing human σ1; with: [3H](+)-pentazocine).
`COC(=O)[C@H]1[C@@H](c2ccc(Cl)c(Cl)c2)C[C@@H]2CC[C@H]1N2Cc1ccc2cc3ccccc3cc2c1` gave a Ki of 210 nM (SLC6A3; ligand displacement, radioligand; pH 7.4).
`CC(C)c1ccccc1/N=N/c1cccc([B-](F)(F)F)c1` gave a Ki of 103000 nM (Chymotrypsinogen A; enzyme activity, competitive inhibitor; buffer with 2 vol% DMSO; pH 7.81, 25 °C, thermally adapted trans state, with: Suc-AAPF-AMC).
The Ki of `Cc1cc(O)cc(C)c1C[C@H](N)C(=O)N[C@H](CCCNC(=N)N)C(=O)N[C@@H](Cc1ccccc1)C(=O)N(C)CC(=O)N(C)Cc1cc(C(F)(F)F)cc(C(F)(F)F)c1` is reported as 147 nM (OPRD1 (Homo sapiens, UniProt P41143, M132A)).
For `O=C(Cc1ccc(Cl)c(Cl)c1)N1CCNC2COCC(N3CCCC3)C21` (stereo not shown), the Ki was 45 nM (OPRK1; cell-free assay).
`CC(C)(C)c1cc(B(O)O)cc(C(C)(C)C)c1` gave a Ki of 3210 nM (Beta-lactamase (ampC, Escherichia coli K-12, UniProt P00811); enzyme activity, inhibitor, absorbance; with: CENTA substrate).
`COc1ccc(S(=O)(=O)Oc2ccc(/C=N/NS(=O)(=O)c3ccc(Cl)cc3)cc2)cc1` gave a Ki of 25.2 nM (ache; enzyme activity, inhibitor, Ellman).
The Ki of `COC(=O)[C@H]1[C@@H](c2ccc(Cl)cc2)C[C@@H]2CC[C@H]1N2CCCc1ccc2cc3ccccc3cc2c1` is reported as 30 nM (SLC6A3; ligand displacement, radioligand; pH 7.4, cell membranes).
For `COc1ccccc1/N=N/c1cccc([B-](F)(F)F)c1`, the Ki was 49900 nM (Chymotrypsinogen A; enzyme activity, competitive inhibitor; buffer with 2 vol% DMSO; pH 7.81, 25 °C, thermally adapted trans state, with: Suc-AAPF-AMC).
`CN(C)[C@H](CNC(=O)/C=C/c1cccc2ccccc12)Cc1ccc(O)cc1` gave a Ki of 1700 nM (DRD5; cell-free assay).
With `Cc1ccccc1/N=N/c1cccc([B-](F)(F)F)c1` the Ki was 10000 nM (Chymotrypsinogen A; enzyme activity, competitive inhibitor; buffer with 2 vol% DMSO; pH 7.81, 25 °C, thermally adapted trans state, with: Suc-AAPF-AMC).
The Ki of `COc1cc2c(cc1O)C(CCc1ccc(Cl)cc1)N(C)CC2` (stereo not shown) is reported as 1700 nM (HTR7 (Homo sapiens, UniProt P34969); cell-free assay, radioligand).
`CC(C)C[C@H](NC(=O)CNC(=O)[C@H](CCC(N)=O)NC(=O)[C@H](CC(C)C)NC(=O)[C@H](CC(C)C)NC(=O)[C@H](CCCNC(=N)N)NC(=O)[C@H](CCC(N)=O)NC(=O)[C@H](CC(C)C)NC(=O)[C@H](CCCNC(=N)N)NC(=O)[C@H](C)NC(=O)[C@H](CO)NC(=O)[C@H](CC(=O)O)NC(=O)[C@H](CCC(N)=O)NC(=O)[C@H](CC(C)C)NC(=O)[C@H](CCCNC(=N)N)NC(=O)[C@H](CO)NC(=O)[C@H](Cc1ccc(O)cc1)NC(=O)[C@H](CCC(=O)O)NC(=O)[C@H](Cc1ccc(C(=O)c2ccccc2)cc1)NC(=O)[C@@H](NC(=O)[C@H](Cc1ccccc1)NC(=O)[C@@H](NC(=O)CNC(=O)[C@H](CC(=O)O)NC(=O)[C@H](CO)NC(=O)[C@@H](N)Cc1c[nH]cn1)[C@@H](C)O)[C@@H](C)O)C(=O)N[C@H](C(N)=O)C(C)C` gave a Ki of greater than 1000 nM (Sctr (Rattus norvegicus, UniProt P23811); ligand displacement in cells, radioligand).
`N=C(N)NCCC[C@@H](N)C(=O)N[C@@H](CCCNC(=N)N)C(=O)N1CCC[C@H]1C(=O)N1C[C@H](O)C[C@H]1C(=O)NCC(=O)N[C@@H](Cc1cccs1)C(=O)N[C@@H](CO)C(=O)N1Cc2ccccc2C[C@@H]1C(=O)N1[C@H](C(=O)N[C@@H](CCCNC(=N)N)C(=O)O)C[C@@H]2CCCC[C@@H]21` has a Ki of greater than 10000 nM (bradykinin B2 receptor (rat); rat brain membranes; with: [3H]bradykinin).
`C[C@@H](Cc1ccsc1)NC(=O)NC[C@H](Cc1ccc(O)cc1)N(C)C` has a Ki of 32000 nM (DRD1 (Homo sapiens, UniProt P21728); cell-free assay).
`COc1ccccc1-c1n[nH]c2nc(NC3CCN(C(=O)Cc4ccc(F)cc4F)CC3)ncc12` has a relative abundance of 0.7 (bead binding, competition bead pull-down, measured: LINJ.09.0820; Leishmania donovani axenic amastigote extract; 10 µM; baseline: vehicle).
With `O=C(O)c1ccc(/N=N/c2cccc([B-](F)(F)F)c2)cc1` the Ki was 554000 nM (Chymotrypsinogen A; enzyme activity, inhibitor; pH 7.81, 25 °C, cis-enriched photostationary state, with: Suc-AAPF-AMC).
The Ki of `CC[C@H](C)[C@H](NC(=O)[C@H](CCCNC(=N)N)NC(=O)[C@H](CCCNC(=N)N)NC(=O)[C@H](CC(C)C)NC(=O)[C@H](Cc1ccccc1)NC(=O)CNC(=O)CN)C(=O)N[C@@H](CCCNC(=N)N)C(=O)N1CCC[C@H]1C(=O)N[C@@H](CCCCN)C(=O)N[C@@H](CC(C)C)C(=O)N[C@@H](CCCCN)C(=O)N[C@@H](Cc1c[nH]c2ccccc12)C(=O)N[C@@H](CC(=O)O)C(=O)N[C@@H](CC(N)=O)C(=O)N[C@@H](CCC(N)=O)C(=O)O` is reported as 12.2 nM (GPR139 (Homo sapiens, UniProt Q6DWJ6); ligand displacement, radioligand; cell membranes).
`COC(=O)[C@H]1[C@@H](c2ccc(Cl)c(Cl)c2)C[C@@H]2CC[C@H]1N2CCCCCCCCCCCc1c2ccccc2cc2ccccc12` has a Ki of 8.9 nM (SLC6A3; ligand displacement, radioligand; pH 7.4).
With `CC(C)[C@H]1NC(=O)[C@H](CO)NC(=O)[C@H](CCC(N)=O)NC(=O)[C@H](Cc2ccccc2)NC(=O)[C@H](Cc2ccc3ccccc3c2)NC(=O)[C@H](CCCNC(=N)N)NC(=O)[C@H](CCCNC(=N)N)NC(=O)[C@H](CCCNC(=N)N)NC(=O)[C@H](CCCNC(=N)N)NC(=O)[C@H](Cc2c[nH]cn2)NC(=O)[C@H](Cc2ccc(C(F)(F)P(=O)(O)O)cc2)NC(=O)[C@@H]2CCCN2C1=O` the Ki was 54 nM (PTPN1 (Homo sapiens, UniProt P18031); enzyme activity, inhibitor, absorbance).
For `O=C1NC2(CC2)COc2ncc(F)cc2[C@H]2COCCN2c2ccn3ncc1c3n2`, the reticulocytes was 2.19 ± 0.57% (Sprague-Dawley rat, female, blood; oral, 10 mg/kg/day, end of treatment, 4-week repeated-dose toxicity; baseline: red blood cells).
The Ki of `Fc1cccc(F)c1/N=N/c1cccc([B-](F)(F)F)c1` is reported as 65900 nM (Chymotrypsinogen A; enzyme activity, inhibitor; pH 7.81, 25 °C, cis-enriched photostationary state, with: Suc-AAPF-AMC).
The TGI of `CC(C)(C)C(=O)OCOP(=O)(OCOC(=O)C(C)(C)C)C1CCCN(O)C1=O` (stereo not shown) is reported as 14.1 µM (M14).
`Cc1ccc2c(C(C[N+](=O)[O-])c3cccs3)c(-c3ccccc3)[nH]c2c1` (stereo not shown) has an EC50 of 130 nM (CNR1 (Homo sapiens, UniProt P21554, Y397A); G protein activation, agonist, BRET).
The Ki of `CC(=O)c1ccc(/N=N/c2cccc([B-](F)(F)F)c2)cc1` is reported as 292000 nM (Chymotrypsinogen A; enzyme activity, inhibitor; pH 7.81, 25 °C, cis-enriched photostationary state, with: Suc-AAPF-AMC).
`Cc1cc(C(=O)Nc2nc3cccc(C)c3n2[C@H]2CCCCN(C(=O)/C=C/CN(C)C)C2)ccn1`: “cells in G2 phase” 35.4% (Trypanosoma brucei; propidium iodide flow cytometry; bloodstream form; concentration not given, 6 h).
With `CC(=O)NCCCC[C@H](NC(=O)[C@H](CCCNC(=N)NCCC[C@H]1O[C@@H](n2cnc3c(N)ncnc32)[C@H](O)[C@@H]1O)NC(=O)[C@@H]1CCCN1C(=O)[C@H](C)NC(C)=O)C(=O)N[C@@H](CCC(N)=O)C(=O)N[C@@H](CC(C)C)C(N)=O` (relative stereo) the Ki was 1 nM (CARM1; enzyme activity, inhibitor).
`Cc1ccc(/N=N/c2ccc(C)c([B-](F)(F)F)c2)cc1` gave a Ki of 200000 nM (Chymotrypsinogen A; enzyme activity, competitive inhibitor; buffer with 2 vol% DMSO; pH 7.81, 25 °C, thermally adapted trans state, with: Suc-AAPF-AMC).
For `COC(=O)[C@H]1[C@@H](c2ccc(Cl)c(Cl)c2)C[C@@H]2CC[C@H]1N2CCCCCc1ccc2cc3ccccc3cc2c1`, the Ki was 14 nM (SLC6A3; ligand displacement, radioligand; pH 7.4).
The Ki of `O=C(Cc1ccc(Cl)cc1)N1CCN[C@@H]2COC[C@H](N3CCCC3)[C@H]21` (relative stereo) is reported as 340 nM (OPRK1; cell-free assay).
For `Cc1c(Cl)c(=O)oc2cc(OCCCCCC[Se]C#N)ccc12`, the Ki was 91.1 nM (CA9 (Homo sapiens, UniProt Q16790); enzyme activity, inhibitor, stopped-flow).

Excerpt of the above:
For `O=C1NC2(CC2)COc2ncc(F)cc2[C@H]2COCCN2c2ccn3ncc1c3n2`, the reticulocytes was 2.19 ± 0.57% (Sprague-Dawley rat, female, blood; oral, 10 mg/kg/day, end of treatment, 4-week repeated-dose toxicity; baseline: red blood cells).
With `O=S(=O)(N/N=C/c1ccc(OS(=O)(=O)c2ccccc2)cc1)c1cc(Cl)ccc1Cl` the Ki was 10.1 nM (ache; enzyme activity, inhibitor, Ellman).
`Cc1ccc(/N=N/c2ccc(C)c([B-](F)(F)F)c2)cc1` gave a Ki of 200000 nM (Chymotrypsinogen A; enzyme activity, competitive inhibitor; buffer with 2 vol% DMSO; pH 7.81, 25 °C, thermally adapted trans state, with: Suc-AAPF-AMC).
The Ki of `CC(=O)NCCCC[C@H](NC(=O)[C@H](CCCNC(=N)NCCC[C@H]1O[C@@H](n2cnc3c(N)ncnc32)[C@H](O)[C@@H]1O)NC(=O)[C@@H]1CCCN1C(=O)[C@H](C)NC(=O)[C@H](CCCCN)NC(C)=O)C(=O)N[C@@H](CCC(N)=O)C(=O)N[C@@H](CC(C)C)C(=O)N[C@@H](C)C(N)=O` (relative stereo) is reported as 66 nM (CARM1; enzyme activity, inhibitor).
The Ki of `O=C(Cc1ccc(Cl)cc1)N1CCN[C@@H]2COC[C@H](N3CCCC3)[C@H]21` (relative stereo) is reported as 340 nM (OPRK1; cell-free assay).
`CN(C)[C@H](CNC(=O)/C=C/c1cccc2ccccc12)Cc1ccc(O)cc1` gave a Ki of 1700 nM (DRD5; cell-free assay).
